Published values collected from several papers.
Each numbered part is a random draw from the data of one study; scales do not carry over between parts.
UniProt P42336, sequence (whole entry, unmodified, looked up): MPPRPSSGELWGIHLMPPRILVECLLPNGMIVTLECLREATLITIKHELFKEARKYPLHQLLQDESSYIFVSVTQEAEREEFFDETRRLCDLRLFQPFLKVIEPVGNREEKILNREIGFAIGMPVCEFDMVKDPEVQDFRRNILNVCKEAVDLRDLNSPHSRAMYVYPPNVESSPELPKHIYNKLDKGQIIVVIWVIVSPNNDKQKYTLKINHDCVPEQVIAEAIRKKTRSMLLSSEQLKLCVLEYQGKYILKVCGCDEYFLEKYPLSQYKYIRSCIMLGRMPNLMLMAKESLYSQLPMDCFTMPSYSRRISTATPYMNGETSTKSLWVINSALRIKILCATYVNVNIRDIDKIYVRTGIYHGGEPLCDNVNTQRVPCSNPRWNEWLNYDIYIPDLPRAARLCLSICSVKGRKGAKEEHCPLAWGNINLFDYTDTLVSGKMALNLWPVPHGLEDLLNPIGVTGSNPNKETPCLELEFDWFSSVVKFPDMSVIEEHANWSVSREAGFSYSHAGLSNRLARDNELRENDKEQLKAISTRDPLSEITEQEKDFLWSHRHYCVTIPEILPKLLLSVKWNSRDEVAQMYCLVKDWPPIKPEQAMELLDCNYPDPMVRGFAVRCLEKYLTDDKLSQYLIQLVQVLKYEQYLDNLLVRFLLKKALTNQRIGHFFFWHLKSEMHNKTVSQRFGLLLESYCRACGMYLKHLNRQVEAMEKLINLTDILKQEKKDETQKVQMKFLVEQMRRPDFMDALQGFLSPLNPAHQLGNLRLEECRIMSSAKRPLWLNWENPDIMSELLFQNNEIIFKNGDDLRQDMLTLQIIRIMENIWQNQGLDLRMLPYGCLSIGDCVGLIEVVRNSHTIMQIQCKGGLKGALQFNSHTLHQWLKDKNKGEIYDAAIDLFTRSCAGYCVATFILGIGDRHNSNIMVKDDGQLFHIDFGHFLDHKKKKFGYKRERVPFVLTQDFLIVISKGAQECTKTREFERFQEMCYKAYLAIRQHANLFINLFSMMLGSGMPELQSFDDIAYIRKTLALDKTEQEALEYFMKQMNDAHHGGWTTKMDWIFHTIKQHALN
UniProt Q5S007, sequence (whole entry, looked up): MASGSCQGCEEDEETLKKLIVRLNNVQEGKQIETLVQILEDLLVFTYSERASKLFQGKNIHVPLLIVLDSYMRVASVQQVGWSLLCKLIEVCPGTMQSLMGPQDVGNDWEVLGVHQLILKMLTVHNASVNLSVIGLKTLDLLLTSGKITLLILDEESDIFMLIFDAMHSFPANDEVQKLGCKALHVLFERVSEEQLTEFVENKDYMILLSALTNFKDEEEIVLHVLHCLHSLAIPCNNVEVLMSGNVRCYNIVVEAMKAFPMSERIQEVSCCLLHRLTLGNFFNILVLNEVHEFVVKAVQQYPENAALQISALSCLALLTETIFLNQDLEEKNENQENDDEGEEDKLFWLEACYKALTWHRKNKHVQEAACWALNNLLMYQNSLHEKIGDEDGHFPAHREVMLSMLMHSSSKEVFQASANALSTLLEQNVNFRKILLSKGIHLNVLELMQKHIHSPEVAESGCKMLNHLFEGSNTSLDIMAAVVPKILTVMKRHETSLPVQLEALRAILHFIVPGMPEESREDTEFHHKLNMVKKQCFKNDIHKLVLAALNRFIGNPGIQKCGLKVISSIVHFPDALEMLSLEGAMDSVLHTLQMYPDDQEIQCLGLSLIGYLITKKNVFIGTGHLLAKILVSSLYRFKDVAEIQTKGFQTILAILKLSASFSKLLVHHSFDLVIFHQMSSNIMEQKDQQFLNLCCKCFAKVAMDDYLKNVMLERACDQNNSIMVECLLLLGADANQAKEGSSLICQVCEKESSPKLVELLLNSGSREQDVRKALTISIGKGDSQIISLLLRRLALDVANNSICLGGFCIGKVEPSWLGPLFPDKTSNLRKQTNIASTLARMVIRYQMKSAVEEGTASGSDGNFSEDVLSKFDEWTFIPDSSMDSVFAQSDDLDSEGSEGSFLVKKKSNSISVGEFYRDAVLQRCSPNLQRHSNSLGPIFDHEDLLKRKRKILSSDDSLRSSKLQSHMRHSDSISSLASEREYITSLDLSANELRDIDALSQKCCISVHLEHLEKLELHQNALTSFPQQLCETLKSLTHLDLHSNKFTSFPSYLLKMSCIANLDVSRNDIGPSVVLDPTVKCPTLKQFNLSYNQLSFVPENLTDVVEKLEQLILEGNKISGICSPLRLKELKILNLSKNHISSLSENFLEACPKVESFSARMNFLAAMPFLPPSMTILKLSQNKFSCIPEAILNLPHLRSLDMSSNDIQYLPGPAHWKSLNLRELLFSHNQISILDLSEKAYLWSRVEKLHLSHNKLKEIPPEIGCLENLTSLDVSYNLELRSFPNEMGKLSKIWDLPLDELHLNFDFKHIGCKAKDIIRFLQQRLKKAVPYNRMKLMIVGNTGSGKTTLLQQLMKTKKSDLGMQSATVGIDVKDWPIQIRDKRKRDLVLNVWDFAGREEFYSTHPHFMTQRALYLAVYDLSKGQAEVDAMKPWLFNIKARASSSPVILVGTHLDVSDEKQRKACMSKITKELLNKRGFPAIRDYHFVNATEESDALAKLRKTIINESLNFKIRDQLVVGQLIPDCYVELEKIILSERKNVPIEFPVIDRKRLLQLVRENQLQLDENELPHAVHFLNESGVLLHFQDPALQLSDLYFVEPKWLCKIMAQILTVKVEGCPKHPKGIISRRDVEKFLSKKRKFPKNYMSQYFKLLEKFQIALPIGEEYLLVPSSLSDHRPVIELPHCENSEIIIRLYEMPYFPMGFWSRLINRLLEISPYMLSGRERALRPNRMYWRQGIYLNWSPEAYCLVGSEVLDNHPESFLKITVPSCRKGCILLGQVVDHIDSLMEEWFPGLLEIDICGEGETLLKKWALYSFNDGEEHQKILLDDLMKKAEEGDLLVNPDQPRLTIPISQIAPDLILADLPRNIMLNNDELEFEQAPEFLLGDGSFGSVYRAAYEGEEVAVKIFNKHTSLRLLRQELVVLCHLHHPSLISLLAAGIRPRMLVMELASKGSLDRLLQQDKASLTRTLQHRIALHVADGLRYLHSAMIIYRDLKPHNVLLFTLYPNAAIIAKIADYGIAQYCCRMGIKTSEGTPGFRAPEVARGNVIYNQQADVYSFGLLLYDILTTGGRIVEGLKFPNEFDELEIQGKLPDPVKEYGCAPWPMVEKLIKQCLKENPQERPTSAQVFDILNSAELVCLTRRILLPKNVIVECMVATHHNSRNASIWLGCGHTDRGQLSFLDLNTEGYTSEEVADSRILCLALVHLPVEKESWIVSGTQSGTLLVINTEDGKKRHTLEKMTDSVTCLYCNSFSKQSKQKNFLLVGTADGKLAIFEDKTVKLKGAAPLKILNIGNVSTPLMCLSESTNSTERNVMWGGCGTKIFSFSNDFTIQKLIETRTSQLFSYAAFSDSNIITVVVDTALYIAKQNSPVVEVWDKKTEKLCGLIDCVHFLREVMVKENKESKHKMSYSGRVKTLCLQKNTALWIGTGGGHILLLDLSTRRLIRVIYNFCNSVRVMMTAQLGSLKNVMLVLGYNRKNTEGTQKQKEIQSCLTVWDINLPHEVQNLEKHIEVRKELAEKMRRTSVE
UniProt Q9BRS2, sequence (whole entry, looked up): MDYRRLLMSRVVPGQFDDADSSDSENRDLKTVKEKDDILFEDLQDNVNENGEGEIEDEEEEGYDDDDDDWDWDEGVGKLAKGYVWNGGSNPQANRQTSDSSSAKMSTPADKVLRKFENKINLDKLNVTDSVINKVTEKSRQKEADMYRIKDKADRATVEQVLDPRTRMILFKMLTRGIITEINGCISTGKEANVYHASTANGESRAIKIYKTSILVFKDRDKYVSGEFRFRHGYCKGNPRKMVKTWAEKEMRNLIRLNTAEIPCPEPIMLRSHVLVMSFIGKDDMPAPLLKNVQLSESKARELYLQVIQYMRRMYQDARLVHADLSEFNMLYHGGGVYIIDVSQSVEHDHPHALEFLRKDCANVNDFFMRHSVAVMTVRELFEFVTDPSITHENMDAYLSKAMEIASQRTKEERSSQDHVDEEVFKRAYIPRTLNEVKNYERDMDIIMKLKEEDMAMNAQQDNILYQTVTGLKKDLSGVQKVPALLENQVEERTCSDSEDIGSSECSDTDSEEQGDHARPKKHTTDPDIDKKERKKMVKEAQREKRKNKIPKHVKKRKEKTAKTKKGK
UniProt Q99500, sequence (whole entry, looked up): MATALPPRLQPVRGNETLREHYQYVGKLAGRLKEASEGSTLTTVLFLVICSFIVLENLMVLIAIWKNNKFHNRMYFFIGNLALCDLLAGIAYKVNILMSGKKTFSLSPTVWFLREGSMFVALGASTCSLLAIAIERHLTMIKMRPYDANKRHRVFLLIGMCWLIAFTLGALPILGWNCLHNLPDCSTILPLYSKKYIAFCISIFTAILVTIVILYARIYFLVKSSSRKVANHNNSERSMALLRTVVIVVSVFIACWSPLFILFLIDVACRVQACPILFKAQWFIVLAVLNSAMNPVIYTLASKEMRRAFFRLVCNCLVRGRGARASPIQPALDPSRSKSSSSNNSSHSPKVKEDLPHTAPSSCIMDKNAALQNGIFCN
UniProt Q9NY57, sequence (whole entry, looked up): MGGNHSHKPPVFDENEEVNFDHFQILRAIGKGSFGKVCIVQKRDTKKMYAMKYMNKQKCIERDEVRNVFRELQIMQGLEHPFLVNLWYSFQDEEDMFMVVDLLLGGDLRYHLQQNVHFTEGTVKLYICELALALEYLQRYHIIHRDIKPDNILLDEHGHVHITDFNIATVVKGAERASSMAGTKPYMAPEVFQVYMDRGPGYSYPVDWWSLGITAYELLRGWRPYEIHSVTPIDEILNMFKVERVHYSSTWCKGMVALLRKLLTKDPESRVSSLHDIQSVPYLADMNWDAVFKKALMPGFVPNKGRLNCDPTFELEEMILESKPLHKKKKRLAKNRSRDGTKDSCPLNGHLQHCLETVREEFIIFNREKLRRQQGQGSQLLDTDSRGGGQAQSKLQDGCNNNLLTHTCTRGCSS

Sample 1
Compound: N=C(N)NC(=O)c1cnn(-c2cccc3ncccc23)c1C1CC1
Effect on: β-arrestin recruitment
Action: agonist
Method: PRESTO-Tango
Concentration: 10 µM
Relative to: untreated
Endpoint: fold over basal
target = S1PR2 (Homo sapiens, UniProt O95136); result = 1.08
target = UTS2R (Homo sapiens, UniProt Q9UKP6); result = 0.74 fold
target = GRM8 (Homo sapiens, UniProt O00222); result = 1.1 fold
target = Metabotropic glutamate receptor 6 (Homo sapiens, UniProt O15303); result = 0.94 fold
target = DRD4 (Homo sapiens, UniProt P21917); result = 1.28
target = F2RL1 (Homo sapiens, UniProt P55085); result = 1
target = HTR1D (Homo sapiens, UniProt P28221); result = 1.01
target = PTGER2 (Homo sapiens, UniProt P43116); result = 1.13
target = S1PR3 (Homo sapiens, UniProt Q99500); result = 0.74

Sample 2
SMILES: CCN(CC)C(=O)c1ccc(Nc2nc(OCC3CCCCC3)c3[nH]cnc3n2)cc1
Effect on: enzyme activity
Action: inhibitor
Concentration: 0.5 µM
Relative to: control
Endpoint: remaining activity
target = MST1R (Homo sapiens, UniProt Q04912); result = 103%
target = NEK6 (Homo sapiens, UniProt Q9HC98); result = 101%
target = CSNK1G3 (Homo sapiens, UniProt Q9Y6M4); result = 61.7%
target = ACVR1B (Homo sapiens, UniProt P36896); result = 101%
target = MAP2K2 (Homo sapiens, UniProt P36507); result = 94%
target = ABL2 (Homo sapiens, UniProt P42684); result = 67.8%
target = JAK3 (Homo sapiens, UniProt P52333); result = 6.39%
target = GRK7 (Homo sapiens, UniProt Q8WTQ7); result = 103%
target = MAPK3 (Homo sapiens, UniProt P27361); result = 101%
target = MAPKAPK2 (Homo sapiens, UniProt P49137); result = 99.2%
target = MAP3K5 (Homo sapiens, UniProt Q99683); result = 96.9%
target = TAOK2 (Homo sapiens, UniProt Q9UL54); result = 66%
target = TEK (Homo sapiens, UniProt Q02763); result = 95.4%

Sample 3
Organism: Sarcocystis neurona
Effect on: parasite growth
Concentration: 10 µM
Time: 96 h
Setting: secondary screen
Endpoint: inhibition
SMILES = CNCC[C@@H](Oc1ccccc1C)c1ccccc1; result = -35.1%
SMILES = Nc1nc(N)nc(-c2cc(Cl)ccc2Cl)n1; result = 17.3%
SMILES = CN(C)CCCN1c2ccccc2CCc2ccc(Cl)cc21; result = -37.9%
SMILES = CN(C)CCOC(c1ccc(Cl)cc1)c1ccccn1 (stereo not drawn); result = -19.5%
SMILES = C#C[C@]1(O)CC[C@H]2[C@@H]3CCC4=CC(=O)CC[C@@H]4[C@H]3CC[C@@]21C; result = 4.6%
SMILES = Nc1c2c(nc3c1CCC3)CCCC2; result = -17.3%
SMILES = CC(=O)[C@H]1CC[C@H]2[C@@H]3C[C@H](C)C4=CC(=O)CC[C@]4(C)[C@H]3[C@@H](O)C[C@]12C; result = -2.7%
SMILES = C[C@]12C[C@H](O)[C@H]3[C@@H](CCC4=CC(=O)CC[C@@]43C)[C@@H]1CC[C@@H]2C(=O)CO; result = -5.5%
SMILES = Cc1ncc([N+](=O)[O-])n1CC(O)CCl (stereo not drawn); result = -13.1%
SMILES = NCC(=O)CCC(=O)O; result = -12.3%
SMILES = COc1ccc(Cl)cc1C(=O)NCCc1ccc(S(=O)(=O)NC(=O)NC2CCCCC2)cc1; result = 0.8%
SMILES = OCc1cccnc1; result = -33%
SMILES = CC(C)C[C@H](NC(=O)[C@@H](O)[C@H](N)Cc1ccccc1)C(=O)O; result = -43.1%

Sample 4
Compound: C[C@H](c1ccc(F)cc1)N(Cc1cccc(C(=O)O)c1)C(=O)c1cnc2ccccc2c1
Concentration: 1 µM
Endpoint: remaining binding
target = IKBKB (Homo sapiens, UniProt O14920); test = cell-free assay, competition with immobilised ligand; result = 100%
target = GRK3 (Homo sapiens, UniProt P35626); test = binding, competition with immobilised ligand; result = 40%
target = PRKCQ (Homo sapiens, UniProt Q04759); test = cell-free assay, competition with immobilised ligand; result = 100%
target = PIP4K2C (Homo sapiens, UniProt Q8TBX8); test = cell-free assay, competition with immobilised ligand; result = 81%
target = FGR (Homo sapiens, UniProt P09769); test = cell-free assay, competition with immobilised ligand; result = 100%
target = PLK4 (Homo sapiens, UniProt O00444); test = cell-free assay, competition with immobilised ligand; result = 100%
target = ULK1 (Homo sapiens, UniProt O75385); test = cell-free assay, competition with immobilised ligand; result = 86%
target = MUSK (Homo sapiens, UniProt O15146); test = cell-free assay, competition with immobilised ligand; result = 76%
target = STK17A (Homo sapiens, UniProt Q9UEE5); test = cell-free assay, competition with immobilised ligand; result = 86%
target = ACVRL1 (Homo sapiens, UniProt P37023); test = binding, competition with immobilised ligand; result = 100%
target = MAP3K12 (Homo sapiens, UniProt Q12852); test = cell-free assay, competition with immobilised ligand; result = 100%
target = PRKCE (Homo sapiens, UniProt Q02156); test = cell-free assay, competition with immobilised ligand; result = 95%
target = CAMK1G (Homo sapiens, UniProt Q96NX5); test = cell-free assay, competition with immobilised ligand; result = 100%
target = WNK1 (Homo sapiens, UniProt Q9H4A3); test = cell-free assay, competition with immobilised ligand; result = 100%
target = STK32B (Homo sapiens, UniProt Q9NY57); test = cell-free assay, competition with immobilised ligand; result = 97%
target = PIK3CA (Homo sapiens, UniProt P42336, I800L); test = cell-free assay, competition with immobilised ligand; result = 61%
target = RIOK1 (Homo sapiens, UniProt Q9BRS2); test = cell-free assay, competition with immobilised ligand; result = 100%
target = LRRK2 (Homo sapiens, UniProt Q5S007); test = cell-free assay, competition with immobilised ligand; result = 100%
target = NUAK1 (Homo sapiens, UniProt O60285); test = cell-free assay, competition with immobilised ligand; result = 100%
target = TESK1 (Homo sapiens, UniProt Q15569); test = cell-free assay, competition with immobilised ligand; result = 100%
target = eIF-2-alpha kinase GCN2, C-terminal kinase domain (EIF2AK4, Homo sapiens, UniProt Q9P2K8, S808G); test = cell-free assay, competition with immobilised ligand; result = 100%
target = COQ8A (Homo sapiens, UniProt Q8NI60); test = cell-free assay, competition with immobilised ligand; result = 85%
target = PIK3CA (Homo sapiens, UniProt P42336, M1043I); test = cell-free assay, competition with immobilised ligand; result = 100%
target = FLT3 (Homo sapiens, UniProt P36888, F691L/ITD); test = cell-free assay, competition with immobilised ligand; result = 100%
target = CDC42BPG (Homo sapiens, UniProt Q6DT37); test = competition binding; result = 100%

Repeated from above (sample 4):
target = LRRK2 (Homo sapiens, UniProt Q5S007); test = cell-free assay, competition with immobilised ligand; result = 100%
target = PIK3CA (Homo sapiens, UniProt P42336, M1043I); test = cell-free assay, competition with immobilised ligand; result = 100%
target = PIP4K2C (Homo sapiens, UniProt Q8TBX8); test = cell-free assay, competition with immobilised ligand; result = 81%
target = ACVRL1 (Homo sapiens, UniProt P37023); test = binding, competition with immobilised ligand; result = 100%
target = PIK3CA (Homo sapiens, UniProt P42336, I800L); test = cell-free assay, competition with immobilised ligand; result = 61%
target = WNK1 (Homo sapiens, UniProt Q9H4A3); test = cell-free assay, competition with immobilised ligand; result = 100%
target = MUSK (Homo sapiens, UniProt O15146); test = cell-free assay, competition with immobilised ligand; result = 76%
